Results collected from several papers.
Numbered parts are unrelated; each lists some results of a single study.
Chain of UniProt P08922 (whole entry, looked up): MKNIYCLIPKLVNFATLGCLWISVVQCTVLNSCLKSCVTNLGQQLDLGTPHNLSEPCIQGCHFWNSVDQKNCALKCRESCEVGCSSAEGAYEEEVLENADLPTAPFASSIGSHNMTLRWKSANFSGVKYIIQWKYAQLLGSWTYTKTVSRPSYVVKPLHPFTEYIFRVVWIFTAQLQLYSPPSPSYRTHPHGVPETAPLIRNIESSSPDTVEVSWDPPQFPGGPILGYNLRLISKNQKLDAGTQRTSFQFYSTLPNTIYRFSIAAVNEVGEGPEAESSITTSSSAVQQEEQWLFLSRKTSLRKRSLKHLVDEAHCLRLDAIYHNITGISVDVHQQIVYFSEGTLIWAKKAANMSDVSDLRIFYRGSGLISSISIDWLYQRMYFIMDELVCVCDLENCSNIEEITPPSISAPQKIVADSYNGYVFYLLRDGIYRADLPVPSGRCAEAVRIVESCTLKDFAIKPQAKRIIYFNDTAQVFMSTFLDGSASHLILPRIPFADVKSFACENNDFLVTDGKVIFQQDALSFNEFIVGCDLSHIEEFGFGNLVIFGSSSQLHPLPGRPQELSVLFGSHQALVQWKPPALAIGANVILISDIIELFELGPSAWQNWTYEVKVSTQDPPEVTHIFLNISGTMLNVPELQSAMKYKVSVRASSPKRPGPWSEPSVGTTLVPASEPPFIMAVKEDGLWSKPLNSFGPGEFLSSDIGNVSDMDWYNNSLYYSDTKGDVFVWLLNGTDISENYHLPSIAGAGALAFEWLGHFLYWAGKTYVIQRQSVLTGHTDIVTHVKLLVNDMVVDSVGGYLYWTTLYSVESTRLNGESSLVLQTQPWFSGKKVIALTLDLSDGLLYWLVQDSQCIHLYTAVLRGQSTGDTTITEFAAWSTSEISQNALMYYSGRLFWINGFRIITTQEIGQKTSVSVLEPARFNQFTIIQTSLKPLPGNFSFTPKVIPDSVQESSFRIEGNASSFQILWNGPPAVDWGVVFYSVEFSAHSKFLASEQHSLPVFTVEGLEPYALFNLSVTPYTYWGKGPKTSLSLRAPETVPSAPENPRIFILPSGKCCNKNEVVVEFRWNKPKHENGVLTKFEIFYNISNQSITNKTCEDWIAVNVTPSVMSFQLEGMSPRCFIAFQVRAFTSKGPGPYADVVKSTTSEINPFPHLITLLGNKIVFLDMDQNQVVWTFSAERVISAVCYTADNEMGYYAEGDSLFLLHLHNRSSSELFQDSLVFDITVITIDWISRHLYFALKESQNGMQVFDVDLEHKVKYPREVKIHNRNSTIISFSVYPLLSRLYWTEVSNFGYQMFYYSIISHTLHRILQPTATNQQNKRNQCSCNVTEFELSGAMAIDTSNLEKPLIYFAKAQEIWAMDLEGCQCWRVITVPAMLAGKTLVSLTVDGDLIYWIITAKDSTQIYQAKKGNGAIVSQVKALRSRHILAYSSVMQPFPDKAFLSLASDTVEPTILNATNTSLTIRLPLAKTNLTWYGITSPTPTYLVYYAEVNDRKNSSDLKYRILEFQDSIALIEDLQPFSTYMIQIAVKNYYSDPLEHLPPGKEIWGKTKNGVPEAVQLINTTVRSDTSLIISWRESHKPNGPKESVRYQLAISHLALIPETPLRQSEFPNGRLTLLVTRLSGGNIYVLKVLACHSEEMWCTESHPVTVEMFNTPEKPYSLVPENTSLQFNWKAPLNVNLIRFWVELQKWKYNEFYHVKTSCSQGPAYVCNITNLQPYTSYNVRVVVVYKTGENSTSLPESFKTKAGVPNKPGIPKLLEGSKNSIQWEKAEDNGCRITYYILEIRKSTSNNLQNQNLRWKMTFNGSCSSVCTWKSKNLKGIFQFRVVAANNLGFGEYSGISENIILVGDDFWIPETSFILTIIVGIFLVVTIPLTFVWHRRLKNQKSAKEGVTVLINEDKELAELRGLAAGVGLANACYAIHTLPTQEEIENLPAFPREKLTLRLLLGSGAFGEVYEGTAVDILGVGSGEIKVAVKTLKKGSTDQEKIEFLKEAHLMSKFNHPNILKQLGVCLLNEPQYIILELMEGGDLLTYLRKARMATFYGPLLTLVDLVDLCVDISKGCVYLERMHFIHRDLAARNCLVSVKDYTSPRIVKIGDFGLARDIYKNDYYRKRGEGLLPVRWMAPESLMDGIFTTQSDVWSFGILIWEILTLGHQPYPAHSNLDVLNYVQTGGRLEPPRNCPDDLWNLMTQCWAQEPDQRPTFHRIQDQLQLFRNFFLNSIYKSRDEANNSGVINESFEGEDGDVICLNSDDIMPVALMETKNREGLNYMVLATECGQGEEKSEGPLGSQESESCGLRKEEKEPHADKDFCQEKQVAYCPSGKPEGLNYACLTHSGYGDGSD
Chain of UniProt Q8TDC3 (whole entry, looked up): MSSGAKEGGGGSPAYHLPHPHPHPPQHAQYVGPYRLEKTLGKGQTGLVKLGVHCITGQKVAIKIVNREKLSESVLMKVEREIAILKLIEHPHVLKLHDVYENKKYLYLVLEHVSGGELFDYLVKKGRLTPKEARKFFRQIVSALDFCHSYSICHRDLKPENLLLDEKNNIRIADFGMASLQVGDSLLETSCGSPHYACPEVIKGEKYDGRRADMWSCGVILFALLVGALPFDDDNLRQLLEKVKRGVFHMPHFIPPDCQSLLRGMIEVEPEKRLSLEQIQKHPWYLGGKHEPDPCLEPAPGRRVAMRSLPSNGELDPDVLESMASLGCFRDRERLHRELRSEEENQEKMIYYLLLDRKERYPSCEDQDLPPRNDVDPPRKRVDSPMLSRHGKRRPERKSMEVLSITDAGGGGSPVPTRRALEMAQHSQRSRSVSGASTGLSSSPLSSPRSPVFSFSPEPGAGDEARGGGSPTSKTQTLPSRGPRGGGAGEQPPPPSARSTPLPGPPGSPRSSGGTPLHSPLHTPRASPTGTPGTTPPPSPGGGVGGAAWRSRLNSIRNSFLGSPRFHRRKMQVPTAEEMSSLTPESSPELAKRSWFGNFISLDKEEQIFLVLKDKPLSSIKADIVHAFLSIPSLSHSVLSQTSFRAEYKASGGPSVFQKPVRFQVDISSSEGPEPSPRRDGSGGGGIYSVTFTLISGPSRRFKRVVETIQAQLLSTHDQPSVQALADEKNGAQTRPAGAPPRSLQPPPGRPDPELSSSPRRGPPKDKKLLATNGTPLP
Chain of UniProt Q9H422 (whole entry, looked up): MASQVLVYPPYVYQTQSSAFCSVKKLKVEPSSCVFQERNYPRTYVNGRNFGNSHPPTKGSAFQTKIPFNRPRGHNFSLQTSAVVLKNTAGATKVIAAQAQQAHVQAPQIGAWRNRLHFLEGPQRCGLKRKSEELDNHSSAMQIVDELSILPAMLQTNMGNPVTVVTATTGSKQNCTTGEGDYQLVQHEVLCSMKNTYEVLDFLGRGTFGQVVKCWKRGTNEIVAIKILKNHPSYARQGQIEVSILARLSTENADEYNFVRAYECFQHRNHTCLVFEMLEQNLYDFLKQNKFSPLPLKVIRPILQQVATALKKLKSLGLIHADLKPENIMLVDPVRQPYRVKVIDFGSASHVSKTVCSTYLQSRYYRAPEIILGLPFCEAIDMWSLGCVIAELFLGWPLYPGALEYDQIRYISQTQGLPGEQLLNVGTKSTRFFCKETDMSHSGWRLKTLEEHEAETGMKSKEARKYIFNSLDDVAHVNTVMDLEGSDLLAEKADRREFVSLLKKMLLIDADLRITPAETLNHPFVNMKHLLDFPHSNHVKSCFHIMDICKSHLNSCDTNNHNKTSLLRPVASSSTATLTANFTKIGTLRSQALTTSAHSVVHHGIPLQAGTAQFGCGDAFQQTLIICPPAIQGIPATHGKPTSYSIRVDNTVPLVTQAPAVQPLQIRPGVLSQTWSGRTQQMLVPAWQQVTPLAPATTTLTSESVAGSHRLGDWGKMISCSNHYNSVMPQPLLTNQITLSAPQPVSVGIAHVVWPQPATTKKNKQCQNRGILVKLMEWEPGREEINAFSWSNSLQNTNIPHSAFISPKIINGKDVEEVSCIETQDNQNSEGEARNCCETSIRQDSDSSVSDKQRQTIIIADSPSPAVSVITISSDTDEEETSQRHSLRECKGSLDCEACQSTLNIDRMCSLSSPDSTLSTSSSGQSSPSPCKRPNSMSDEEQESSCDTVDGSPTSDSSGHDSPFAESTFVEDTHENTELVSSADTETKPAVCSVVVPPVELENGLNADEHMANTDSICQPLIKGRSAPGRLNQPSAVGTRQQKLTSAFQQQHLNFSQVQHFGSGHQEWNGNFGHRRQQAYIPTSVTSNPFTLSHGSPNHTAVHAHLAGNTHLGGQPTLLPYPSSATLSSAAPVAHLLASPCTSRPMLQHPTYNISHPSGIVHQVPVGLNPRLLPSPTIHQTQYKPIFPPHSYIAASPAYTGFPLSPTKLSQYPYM
Chain of UniProt Q8IU85 (whole entry, looked up): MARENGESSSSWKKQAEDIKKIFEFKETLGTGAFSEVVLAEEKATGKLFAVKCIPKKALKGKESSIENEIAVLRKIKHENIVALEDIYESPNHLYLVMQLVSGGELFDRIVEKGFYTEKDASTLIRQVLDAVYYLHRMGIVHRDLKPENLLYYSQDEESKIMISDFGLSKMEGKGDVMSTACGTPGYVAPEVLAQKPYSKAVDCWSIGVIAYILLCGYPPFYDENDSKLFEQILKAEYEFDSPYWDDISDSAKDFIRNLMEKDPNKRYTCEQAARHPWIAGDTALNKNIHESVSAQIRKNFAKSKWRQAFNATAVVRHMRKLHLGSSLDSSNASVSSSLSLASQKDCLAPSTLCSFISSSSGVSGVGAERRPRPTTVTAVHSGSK
Chain of UniProt O14965 (whole entry, looked up): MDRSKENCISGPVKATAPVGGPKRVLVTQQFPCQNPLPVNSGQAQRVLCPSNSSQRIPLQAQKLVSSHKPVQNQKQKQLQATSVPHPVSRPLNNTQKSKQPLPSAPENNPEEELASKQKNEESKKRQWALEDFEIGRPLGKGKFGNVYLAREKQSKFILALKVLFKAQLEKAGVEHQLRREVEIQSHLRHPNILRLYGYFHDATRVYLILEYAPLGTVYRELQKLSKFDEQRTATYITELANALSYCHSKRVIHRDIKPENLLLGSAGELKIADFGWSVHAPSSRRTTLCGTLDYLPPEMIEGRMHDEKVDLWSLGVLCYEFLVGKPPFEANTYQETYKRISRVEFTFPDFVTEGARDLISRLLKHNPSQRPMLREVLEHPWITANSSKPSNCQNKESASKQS

Study 1
Cell line: HEK-293T-ACE2
Concentration: concentration not given
Reference: vehicle
The cell number of CCN1CC(CCN2CCOCC2)C(c2ccccc2)(c2ccccc2)C1=O.Cl.O (centres unmarked) is reported as 81.6%.
With O=C([O-])[C@H](O)[C@@H](O)[C@H](O)[C@H](O)CO.[Na+] the cell number was 101%.
With Cc1nc2n(c(=O)c1CCN1CCC(c3noc4cc(F)ccc34)CC1)CCCC2 the cell number was 97.8%.
With O=[As]O[As]=O (centres unmarked) the cell number was 103%.
The cell number of O=C(O)C(=O)O.[NH-][C@@H]1CCCC[C@H]1[NH-].[Pt+2] is reported as 100%.
O=C([O-])c1ccccc1[O-].[Bi+3].[OH-] gave a cell number of 99.4%.
S=c1nc[nH]c2nc[nH]c12 gave a cell number of 103%.
With CN[C@H]1C(=O)N[C@@H]2Cc3ccc(cc3)Oc3cc4cc(c3O[C@@H]3O[C@H](C(=O)O)[C@@H](O)[C@H](O)[C@H]3NC(=O)CCCCCCCCC(C)C)Oc3ccc(cc3Cl)[C@@H](O)[C@@H]3NC(=O)[C@H](NC(=O)[C@@H]4NC(=O)[C@@H](NC2=O)c2cc(cc(O)c2Cl)Oc2cc1ccc2O)c1ccc(O)c(c1)-c1c(O[C@H]2O[C@H](CO)[C@@H](O)[C@H](O)[C@@H]2O)cc(O)cc1[C@@H](C(=O)O)NC3=O the cell number was 81%.
FC(F)(F)C(Cl)Br (centres unmarked) has a cell number of 98.2%.

Study 2
Structure (SMILES): CCn1cnc2c(Nc3cccc(Cl)c3)nc(N[C@H]3CCCC[C@H]3N)nc21
Read-out: enzyme activity
Mode: inhibitor
Concentration: 0.5 µM
Reference: control
For PKN2 (Homo sapiens, UniProt Q16513): remaining activity read 90.3%.
It gave 105% for remaining activity (Aurora kinase A (AURKA, Homo sapiens, UniProt O14965)).
The remaining activity was 93.6% (MAP3K8 (Homo sapiens, UniProt P41279)).
NTRK3 (Homo sapiens, UniProt Q16288) — remaining activity: 23.4%.
The remaining activity was 91.7% (MAP3K2 (Homo sapiens, UniProt Q9Y2U5)).
For SLK (Homo sapiens, UniProt Q9H2G2): remaining activity read 71.4%.
The remaining activity was 58.4% (CDK7 (Homo sapiens, UniProt P50613)).
It gave 98.8% for remaining activity (MAPK10 (Homo sapiens, UniProt P53779)).
It gave 92.4% for remaining activity (BRSK1 (Homo sapiens, UniProt Q8TDC3)).
The remaining activity was 102% (HIPK3 (Homo sapiens, UniProt Q9H422)).
DYRK4 (Homo sapiens, UniProt Q9NR20) — remaining activity: 95.1%.
NEK9 (Homo sapiens, UniProt Q8TD19) — remaining activity: 95.4%.
For PTK2B (Homo sapiens, UniProt Q14289): remaining activity read 85.7%.
Cyclin-dependent kinase 2, with cyclin A (CDK2, Homo sapiens, UniProt P24941) — remaining activity: 23.6%.
The remaining activity was 94.1% (CAMK1G (Homo sapiens, UniProt Q96NX5)).
It gave 90.6% for remaining activity (ROCK2 (Homo sapiens, UniProt O75116)).
For RET (Homo sapiens, UniProt P07949): remaining activity read 69.3%.
CAMK1D (Homo sapiens, UniProt Q8IU85) — remaining activity: 96.7%.
The remaining activity was 90.8% (PRKD1 (Homo sapiens, UniProt Q15139)).
GRK5 (Homo sapiens, UniProt P34947) — remaining activity: 106%.
For ROS1 (Homo sapiens, UniProt P08922): remaining activity read 90.7%.
The remaining activity was 99.7% (DMPK (Homo sapiens, UniProt Q09013)).

Study 3
Cell line: HEK-293T-ACE2-TMPRSS2
Technique: cell count
Concentration: concentration not given
CCOC(=O)c1nc(N2CCC(c3ccccc3)C2)c2ccccc2n1 (centres unmarked) has a viability of 84%.
The viability of CN(CC(=O)N1CCN2C(=O)CN(C)C(=O)C2C1)Cc1ccc(F)cc1 (centres unmarked) is reported as 67%.
With Cc1cc2c(cc1O)NC(=O)CC2c1c[nH]nc1-c1ccc(F)cc1 (centres unmarked) the viability was 102%.
For COc1cc(NC(=O)CCC2CCCN(C3CCSCC3)C2)cc(OC)c1 (centres unmarked), the viability was 108%.
For O=C(c1ccc(-n2cnnc2)cc1Cl)N1CCN(CCOc2ccc(Cl)cc2)CC1, the viability was 65%.
Cc1cc(Sc2ccc3c(c2)OCCCO3)n2ncnc2c1 has a viability of 257%.
For COC(=O)CCS(=O)(=O)c1nc(-c2cccs2)cc(C(F)(F)F)n1, the viability was 83%.
For CCCc1cnc(-c2cc(F)ccc2C)nc1, the viability was 70%.
O=[N+]([O-])c1ccc(S(=O)(=O)c2ccccc2)nc1S(=O)(=O)c1ccccc1 has a viability of 67%.
With O=C(c1cn2cc(Cl)ccc2n1)N1CCC2(CC1)C(=O)Nc1ccccc12 the viability was 104%.
With Cc1noc(-c2ccc(S(=O)(=O)NCc3cccs3)o2)c1C the viability was 70%.
For CN1/C(=C/C=C/c2ccc3ccccc3[n+]2C)C=Cc2ccccc21, the viability was 66%.
For CCCS(=O)(=O)c1ncc(Cl)c(C(=O)N(Cc2ccccc2)Cc2ccco2)n1, the viability was 73%.
With CC(=O)N[C@@H]1CN(Cc2ccc(C)o2)C[C@H]1CO the viability was 108%.
With COc1ccc(-c2ccc(Nc3ccc(C)c(C)c3)nn2)cc1S(=O)(=O)N1CCCC1 the viability was 82%.
The viability of c1nc(Sc2nnc(NCC3CCCO3)s2)c2ccsc2n1 (centres unmarked) is reported as 67%.
CCOC(=O)c1c(-c2ccc(N(C)C)cc2)n(C)c2cc(-c3cccnc3)c(O)cc12 has a viability of 76%.
O=C(NCc1ccccc1Cn1cccn1)c1cnc(S)n1-c1ccccc1 gave a viability of 261%.
The viability of CN1CCC2(CC1)CN(C(=O)c1cnc(-c3ccccc3)nc1)CCN2C is reported as 72%.
CCN(CC)CCNC(=O)c1ccc(Nc2cc(-c3cccc(C)c3)ncn2)cc1 gave a viability of 67%.

Study 4
Cell line: A-375
Concentration: 100 µM
Time: 36 h
For O=P1(NCCCl)OCCCN1CCCl (centres unmarked), the viability was 112%.
For CC(C)OC(=O)[C@H](C)N[P@](=O)(CO[C@H](C)Cn1cnc2c(N)ncnc21)Oc1ccccc1, the viability was 101%.
The viability of CN1C(=O)CCS(=O)(=O)C1c1ccc(Cl)cc1 (centres unmarked) is reported as 88.3%.
ClCC1C(CCl)[C@@]2(Cl)C(Cl)=C(Cl)[C@]1(Cl)C2(Cl)Cl (some centres unmarked) has a viability of 0.058%.
With Cc1ccc(-n2nccn2)c(C(=O)N2CCN(c3nc4cc(Cl)ccc4o3)CC[C@H]2C)c1 the viability was 5.32%.
The viability of CC(C)c1cccc(C(C)C)c1O is reported as 44.7%.
With C=C1C[C@@H]2[C@H](CC[C@]3(C)C(=O)CC[C@@H]23)[C@@]2(C)C=CC(=O)C=C12 the viability was 47.8%.
Clc1ccc(C(OCCN2CCCCC2)c2ccccc2)cc1 (centres unmarked) has a viability of -1.89%.

Repeated from above (study 1):
With CN[C@H]1C(=O)N[C@@H]2Cc3ccc(cc3)Oc3cc4cc(c3O[C@@H]3O[C@H](C(=O)O)[C@@H](O)[C@H](O)[C@H]3NC(=O)CCCCCCCCC(C)C)Oc3ccc(cc3Cl)[C@@H](O)[C@@H]3NC(=O)[C@H](NC(=O)[C@@H]4NC(=O)[C@@H](NC2=O)c2cc(cc(O)c2Cl)Oc2cc1ccc2O)c1ccc(O)c(c1)-c1c(O[C@H]2O[C@H](CO)[C@@H](O)[C@H](O)[C@@H]2O)cc(O)cc1[C@@H](C(=O)O)NC3=O the cell number was 81%.
The cell number of CCN1CC(CCN2CCOCC2)C(c2ccccc2)(c2ccccc2)C1=O.Cl.O (centres unmarked) is reported as 81.6%.
O=C([O-])c1ccccc1[O-].[Bi+3].[OH-] gave a cell number of 99.4%.
The cell number of O=C(O)C(=O)O.[NH-][C@@H]1CCCC[C@H]1[NH-].[Pt+2] is reported as 100%.
S=c1nc[nH]c2nc[nH]c12 gave a cell number of 103%.
With Cc1nc2n(c(=O)c1CCN1CCC(c3noc4cc(F)ccc34)CC1)CCCC2 the cell number was 97.8%.
With O=[As]O[As]=O (centres unmarked) the cell number was 103%.
